Published values from different studies.
Each line is one published result; not all experiments were run side by side. Values joined by “and” are separate records of one study, mostly repeats; a detail may differ. ± gives the spread as reported.

Cl.[2H]C([2H])([2H])CC(=O)c1cnc(NC(=O)C2CC2)cc1Nc1cccc(-c2ncn(C([2H])([2H])[2H])n2)c1OC gave a half-life of 9.22 h (human, fasted, multiple dose; oral, 10 mg once daily, tablet, day 14, geometric mean).
With CC[C@H](C)CCCCC(=O)N[C@@H](CCN)C(=O)N[C@H](C(=O)N[C@@H](CCN)C(=O)N[C@H]1CCNC(=O)[C@H]([C@@H](C)O)NC(=O)[C@H](CCN)NC(=O)[C@H](CCN)NC(=O)[C@H](CC(C)C)NC(=O)[C@@H](Cc2ccccc2)NC(=O)[C@H](CCN)NC1=O)[C@@H](C)O the urinary excretion was 1.67% (human, normal renal function, urine; intravenous, 0.75 mg/kg, 0-12 h, arithmetic mean).
For Cc1cc(NC2CCN(C(=O)OC3CCN(C(=O)/C=C/CN(C)C)C3)CC2)n2ncc(C(C)C)c2n1 (centres unmarked), “patients with Dyspnea” read 7% (patients with advanced solid tumours; dose not given, QD arm, grade 3 or higher).
With CC(C)NCCCC[C@@H]1NC(=O)[C@H](Cc2ccc(O)cc2)NC(=O)[C@H](Cc2ccccc2)NC(=O)CC[C@H](C(=O)N[C@@H](CCCCNC(C)C)C(=O)N[C@@H](CCCCNC(=O)[C@H](CCC(=O)O)NC(=O)[C@H](CCC(=O)O)NC(=O)[C@H](CCC(=O)O)NC(=O)CN2CCN(CC(=O)O)CCN(CC(=O)O)CCN(CC(=O)O)CC2)C(N)=O)NC(=O)CNC(=O)[C@H](Cc2ccc3ccccc3c2)NC(=O)[C@@H](CCCNC(=N)N)NC1=O [gallium-68 labelled] the tissue uptake was 0.12 %ID/g (mouse with Granta-519 xenograft, heart; intravenous, 1 h).
O=C(Nc1nc2cccc(-c3ccc(CN4CCS(=O)(=O)CC4)cc3)n2n1)C1CC1: “patients with adverse event” 0% (item: angina pectoris; rheumatoid arthritis patients; oral, 300 mg once daily, 4 weeks, any relatedness).
CC(=O)N[C@@H](CNC(=O)c1cc(NC(=O)c2cc(NC(=O)c3cc(NC(=O)c4nccn4C)cn3C)cn2C)cn1C)CC(=O)Nc1cn(C)c(C(=O)Nc2cc(C(=O)Nc3cc(C(=O)Nc4cc(C(=O)NCCCN(C)CCCNC(=O)c5cccc(C(=O)O)c5)n(C)c4)n(C)c3)n(C)c2)n1: “critical aggregation concentration” 4 µM (dynamic light scattering; 0.1% DMSO in PBS; 25 °C).
O=C(O)c1cccc(C(=O)O)c1: “apparent dissolution enthalpy” 8.28 kcal/mol (betaine/glycerol DES-water; DES mass fraction 0.10).
The effective permeability of O=C(NCCCNc1ccnc(Nc2cccc(NC(=O)N3CCCC3)c2)n1)C1CCC1 is reported as 0.0824 ×10⁻⁶ cm/s (PAMPA; PBS; 5 h, pH 7.4).
C[C@@H]1COCCN1c1cc(C2([S@](C)(=N)=O)CC2)nc(-c2cc[nH]c3nccc2-3)n1 gave a Pyelonephritis incidence of 0% (Japanese advanced solid tumour patients; oral, 160 mg twice daily, CTCAE grade ≥3).
For CCN1CCN(Cc2ccc(NC(=O)c3ccc(C)c(NC(=O)c4cncc(-c5cccs5)c4)c3)cc2C(F)(F)F)CC1, the plasma concentration was 474 ng/mL and 627 ng/mL and 493 ng/mL (LC-MS/MS; C57BL/6 mouse, plasma; intraperitoneal, 15 mg/kg single dose, 0.25 h).
With O=C(O)CCC(=O)O.[2H]C([2H])([2H])Oc1cc(C)c2[nH]ccc2c1CN1CC[C@@H](C2CC2)C[C@H]1c1ccc(C(=O)O)cc1 the TEAE proteinuria was 0% (healthy Chinese subjects; 100 mg, single ascending dose).
For N#CCNC(=O)c1ccc(-c2ccnc(Nc3ccc(N4CCOCC4=O)cc3)n2)cc1, “Cmax geometric mean ratio” read 139% (healthy volunteers, plasma; dose not given, with: rifampin multiple-dose; baseline: with rifampin over alone).
The retention factor of CC[C@H](C)[C@H](N)C(=O)N[C@H]1CSSC[C@@H](C(=O)N[C@H](C(N)=O)[C@@H](C)O)NC(=O)[C@H](CCCNC(=N)N)NC(=O)[C@H](Cc2c[nH]cn2)NC(=O)[C@H](Cc2c[nH]cn2)NC(=O)CNC(=O)[C@H](Cc2c[nH]c3ccccc23)NC(=O)[C@H](CC(=O)O)NC(=O)[C@H](CCC(N)=O)NC(=O)[C@H](C(C)C)NC(=O)[C@H](C(C)C)NC1=O is reported as 0.812 ± 0.013 (RP-HPLC, C18; 28% acetonitrile isocratic; pH 7.4).
With O=C(Nc1cnccc1Cl)N1CCN(Cc2ccc3c(c2)OC(F)(F)O3)CC1 the AUC(0-24) was 4770 ng·h/mL (healthy young men, plasma; oral, 75 mg once daily, day 1).
With O=C(N[C@H](Cc1c[nH]c2ccccc12)C(=O)Nc1ccncc1)c1ccc(N2CCN(c3ccc(F)c(F)c3)CC2)cc1F the concentration was 20 nM (Swiss Webster mouse, female, brain; oral, 50 mg/kg, 8 h, 20% HPβCD vehicle).
C[C@@H]1OC(=O)[C@H](Cc2ccccc2)[C@H]1O: “share of total radioactive residue” 32.2 % TRR (laying hens, eggs; oral, 10.7 mg/kg dry feed, 7 d).
COc1cc2c(c(O)c1OC)C(=O)c1c(cc(C)c(O[C@@H]3O[C@H](CO)[C@@H](O)[C@H](O)[C@H]3O)c1OC)C2=O has a cell viability of 85.2 ± 9.59% (HK-2 co-cultured with HepaRG; MTT; 16.67 µM, 24 h; baseline: untreated control).
C=CCN1CC(=O)N2[C@@H](Cc3ccc(O)cc3F)C(=O)N(Cc3cccc(N4CC(N5CCN(CC)CC5)C4)n3)C[C@@H]2N1C(=O)NCc1ccccc1 — result for “treatment-related adverse events”: 0% (item: ALT increased; human advanced solid tumours; concentration not given, dose escalation grade ≥3).
The fetal accumulation of CCCCC[C@H]1CC[C@H](c2ccc(OCC)c(F)c2F)CC1 is reported as 1.57 ± 1.11 ng/g (rat, fetus; 5000 ng/mL in perfusate, high dose, mixture of 21 LCMs).
For COc1cc2c(c(OC)c1OC)C(=O)c1c(cc(C)c(O)c1OC)C2=O, the viability was 78.7 ± 4.53% (HK-2 co-cultured with HepaRG; MTT; 33.33 µM, 24 h; baseline: untreated control).

Some of these lines once more:
C=CCN1CC(=O)N2[C@@H](Cc3ccc(O)cc3F)C(=O)N(Cc3cccc(N4CC(N5CCN(CC)CC5)C4)n3)C[C@@H]2N1C(=O)NCc1ccccc1 — result for “treatment-related adverse events”: 0% (item: ALT increased; human advanced solid tumours; concentration not given, dose escalation grade ≥3).
CC(=O)N[C@@H](CNC(=O)c1cc(NC(=O)c2cc(NC(=O)c3cc(NC(=O)c4nccn4C)cn3C)cn2C)cn1C)CC(=O)Nc1cn(C)c(C(=O)Nc2cc(C(=O)Nc3cc(C(=O)Nc4cc(C(=O)NCCCN(C)CCCNC(=O)c5cccc(C(=O)O)c5)n(C)c4)n(C)c3)n(C)c2)n1: “critical aggregation concentration” 4 µM (dynamic light scattering; 0.1% DMSO in PBS; 25 °C).
COc1cc2c(c(O)c1OC)C(=O)c1c(cc(C)c(O[C@@H]3O[C@H](CO)[C@@H](O)[C@H](O)[C@H]3O)c1OC)C2=O has a cell viability of 85.2 ± 9.59% (HK-2 co-cultured with HepaRG; MTT; 16.67 µM, 24 h; baseline: untreated control).
